Measured values collected from several papers.
Parts stem from different laboratories: compare values within a part only.

Block 1 — method: RNA Bind-n-Seq; molecule type: RNA; matrix: in vitro; concentration: 15 pmol; setting: 4-mer, random 30-nt RNA, single round; together with: 3 µM RocA, 2 mM AMP-PNP; relative to: mean of 4-mers; reading: higher = stronger binding
Target: Eukaryotic initiation factor 4A-I (EIF4A1, Homo sapiens, UniProt P60842, residues 1-406, full length assumed)
Sequence of UniProt P60842 (whole entry, looked up): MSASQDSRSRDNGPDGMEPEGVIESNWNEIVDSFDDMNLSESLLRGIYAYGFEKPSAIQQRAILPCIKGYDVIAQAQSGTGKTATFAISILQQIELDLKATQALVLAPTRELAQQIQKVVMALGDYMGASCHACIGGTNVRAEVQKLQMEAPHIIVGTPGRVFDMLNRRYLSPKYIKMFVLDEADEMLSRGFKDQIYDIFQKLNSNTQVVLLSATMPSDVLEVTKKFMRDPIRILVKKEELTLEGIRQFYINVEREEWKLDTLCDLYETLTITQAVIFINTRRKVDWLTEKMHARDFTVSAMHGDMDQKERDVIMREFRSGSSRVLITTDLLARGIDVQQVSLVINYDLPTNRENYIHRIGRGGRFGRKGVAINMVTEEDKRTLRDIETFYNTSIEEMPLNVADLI
| Strand | 4-mer enrichment Z-score |
| --- | --- |
| AUGA | 1.18 |
| AAUU | 0.594 |
| GUGC | 0.576 |
| CCCC | -0.927 |
| UACU | -0.748 |
| AGAG | 1.96 |
| CCAC | -1.43 |
| UUAU | -0.0883 |

Block 2 — method: protein-binding microarray; molecule type: hairpin DNA; matrix: in vitro; concentration: not given; relative to: not given; reading: higher = stronger binding
Target: Cyclic AMP-responsive element-binding protein 1, full length (CREB1, Homo sapiens, UniProt P16220, residues 1-327)
Sequence of UniProt P16220 (whole entry, looked up): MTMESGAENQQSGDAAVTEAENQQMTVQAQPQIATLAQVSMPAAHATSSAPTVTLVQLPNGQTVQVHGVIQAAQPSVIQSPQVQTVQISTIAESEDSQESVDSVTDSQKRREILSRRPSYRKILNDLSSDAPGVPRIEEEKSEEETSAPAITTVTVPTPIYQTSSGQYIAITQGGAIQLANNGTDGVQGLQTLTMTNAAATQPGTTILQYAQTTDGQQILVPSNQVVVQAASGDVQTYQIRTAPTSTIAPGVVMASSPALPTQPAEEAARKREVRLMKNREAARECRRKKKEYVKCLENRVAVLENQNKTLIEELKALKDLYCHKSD
Setting: whole hairpin DNA, median over replicate spots
| Strand | median fluorescence [a.u.] |
| --- | --- |
| GAGGCCGGACGACGTCAGCCTCCTGGCTGACGTCGTCCGGCCTCACACTC (5mC at 34) | 4240 |
| GAGGCCGAAGACGTCGTGCCTCCTGGCACGACGTCTTCGGCCTCACACTC (5mC at 15 29 35) | 3280 |
| GAGGCCGGCTGTCGTCAGCCTCCTGGCTGACGACAGCCGGCCTCACACTC | 3540 |
| GAGGCCCGATGACGTCAGCCTCCTGGCTGACGTCATCGGGCCTCACACTC (5mC at 7 37) | 26700 |
| GAGGCCGGATGACCTCAGCCTCCTGGCTGAGGTCATCCGGCCTCACACTC (5mC at 14) | 2620 |
| GAGGCCGGAAGACGTCAGCCTCCTGGCTGACGTCTTCCGGCCTCACACTC | 4530 |
| GAGGCCGGCTGGCGTCAGCCTCCTGGCTGACGCCAGCCGGCCTCACACTC | 3360 |
| GAGGCCGGATGACGTCAGCCTCCTGGCTGACGTCATCCGGCCTCACACTC (5mC at 34) | 7150 |

Block 3 — method: RNA Bind-n-Seq; molecule type: RNA; matrix: in vitro; concentration: 200 nM; setting: whole 134-nt RNA, ends assumed; together with: 150 mM KCl; relative to: input library; reading: higher = stronger binding
Target: Ras GTPase-activating protein-binding protein 1, full length (G3BP1, Homo sapiens, UniProt Q13283)
Sequence of UniProt Q13283 (whole entry, looked up): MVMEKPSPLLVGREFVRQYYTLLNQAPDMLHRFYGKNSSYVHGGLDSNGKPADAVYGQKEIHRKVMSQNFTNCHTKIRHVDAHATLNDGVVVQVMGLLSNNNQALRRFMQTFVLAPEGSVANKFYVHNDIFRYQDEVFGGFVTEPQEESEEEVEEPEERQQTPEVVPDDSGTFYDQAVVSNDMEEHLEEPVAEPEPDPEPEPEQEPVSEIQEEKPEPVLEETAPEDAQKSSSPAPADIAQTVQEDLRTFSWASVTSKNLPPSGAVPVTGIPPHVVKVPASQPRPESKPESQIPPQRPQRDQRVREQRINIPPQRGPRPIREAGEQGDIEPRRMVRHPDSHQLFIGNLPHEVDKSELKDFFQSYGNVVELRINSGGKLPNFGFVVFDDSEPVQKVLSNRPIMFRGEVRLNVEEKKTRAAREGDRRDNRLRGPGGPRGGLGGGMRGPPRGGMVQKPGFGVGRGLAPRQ
All sequences stand within: GGGAGUUCUACAGUCCGACGAUC … UGGAAUUCUCGGGUGUCAAGG
| Strand | log2 enrichment |
| --- | --- |
| CUCAAGUCCUGUGCUACACAUCGUAUGUACCGAAUCGGGGAGGGGAGGGAGGGGAAAGUAUUAUGUUACGCCGUUCGGAUCUGCACUUCC | 1.43 |
| CUGUGCUACACAUCGUAUGUACCGAAUCGGGUUUUUUGGGGUUUUUUGGGGUUUUUUGGGGAAAGUAUUAUGUUACGCCGUUCGGAUCUG | -0.548 |
| CAAGUCCUGUGCUACACAUCGUAUGUACCGAAUCGGUUUGGUUUGGGGUUUGGGGAAAGUAUUAUGUUACGCCGUUCGGAUCUGCACUUC | -0.325 |
| AAGUCCUGUGCUACACAUCGUAUGUACCGAAUCGGUUUUGGGUUUUGGGGUUUUGGGAAAGUAUUAUGUUACGCCGUUCGGAUCUGCACU | -0.742 |
| UUUGAUGACAGUCUGCAGGAGCUGCCUGGUGAAGUACCUGGAGGAGAACAACACCUGCCCCACCUGCAGGAUUGUGAUCCACCAGAGCCA | -0.88 |
| UUUGAAGGUGAUUUCUGGCCCAAUGUGUUAGAAGAGAGCAUUAAGGAACUAGAACAAGAAGAAGAGGAGAGGAAAAAGGAAGAGAGCACU | -0.247 |
| CCUGUGCUACACAUCGUAUGUACCGAAUCGGCCCCCCCGGGCCCCCCCGGGCCCCCCCGGGAAAGUAUUAUGUUACGCCGUUCGGAUCUG | -0.6 |
| GCAGGAAGUAAAAACAAAUGGAAAAACUUCGGAUAGUGGCAGGGGUGGGGGUUGCUAAGGAAAGGGUGGGAUGGGAGUGGGUAAAGAGUU | 0.515 |

Other studies, line by line
| Molecule | target | observed | molecule type | reading | measurement | result |
| --- | --- | --- | --- | --- | --- | --- |
| FLQQRKPPL | HLA class I histocompatibility antigen, A alpha chain, allele A*80:01 (Homo sapiens, UniProt P04439) | peptide-MHC binding | peptide | direction not given | z-score of log IC50 | 0.38 |

Repeated from above (block 3):
| Strand | log2 enrichment |
| --- | --- |
| CAAGUCCUGUGCUACACAUCGUAUGUACCGAAUCGGUUUGGUUUGGGGUUUGGGGAAAGUAUUAUGUUACGCCGUUCGGAUCUGCACUUC | -0.325 |
| GCAGGAAGUAAAAACAAAUGGAAAAACUUCGGAUAGUGGCAGGGGUGGGGGUUGCUAAGGAAAGGGUGGGAUGGGAGUGGGUAAAGAGUU | 0.515 |
